{"data": "Experimental data collected from several papers", "note": "Every numbered part comes from another study and shows a few of its results, in no order. Changes are numbered by the printed parent chain."}
{"data": "Study 1", "target": "Histone acetyltransferase KAT6A, winged helix 1, GST fusion (KAT6A, Homo sapiens, UniProt Q92794, residues 1-85)", "technique": "protein binding microarray", "form": "double-stranded DNA, one strand shown", "sample": "in vitro", "concentration": "not given", "notes": "8-mer, flanks averaged, mean of 2 arrays, mostly near background", "relative to": "not given", "direction": "higher = stronger binding", "Target sequence (chain)": "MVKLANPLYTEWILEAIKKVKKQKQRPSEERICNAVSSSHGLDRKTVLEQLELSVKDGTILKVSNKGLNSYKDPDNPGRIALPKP"}
{"Strand": "ACGGGTCG", "E-score": 0.345}
{"Strand": "ATCAAGGA", "E-score": -0.123}
{"Strand": "AACACCGT", "E-score": 0.32}
{"Strand": "ATCTATCC", "E-score": -0.113}
{"Strand": "CATGTTAC", "E-score": 0.0214}
{"Strand": "CACGAGTG", "E-score": -0.2}
{"Strand": "GGCAGACC", "E-score": 0.187}
{"Strand": "CCTCGCAG", "E-score": -0.0733}
{"data": "Study 2", "target": "RNA binding protein fox-1 homolog 2, RRM domain, GST-SBP tag (RBFOX2, Homo sapiens, UniProt O43251-10, residues 100-194)", "technique": "RNA Bind-n-Seq", "form": "RNA", "sample": "in vitro", "concentration": "365 nM", "notes": "natural RNA segment, single round, ends assumed", "relative to": "no-protein control", "direction": "higher = stronger binding", "shared flanks, not repeated": "GGGAGUUCUACAGUCCGACGAUC … UGGAAUUCUCGGGUGCCAA", "Residues (chain)": "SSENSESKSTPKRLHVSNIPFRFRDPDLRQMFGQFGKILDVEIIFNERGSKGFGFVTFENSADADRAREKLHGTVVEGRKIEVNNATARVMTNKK"}
{"Strand": "UCCUUCUUCUUUUAUGUGUCUCAGAAUAUUUUUGAGGCGAAAGCGUCUGUCUCUUGGCUAUUUUAACCUAAAAUAACCAGUCUAGUUCUAUCCCCUCUUCUUGUAAAGCA", "RBNS enrichment (R)": 2.18}
{"Strand": "CCUGAUAGGGGAGGCAGACGGCCUAGACAGUCUCAUUCUGCCUAUCUUCCACAAGCCUGCCUGCCUGCCUCUCUCUUGCUGCUUCUCCAGCCGUUAACCACAUCUGCCAC", "RBNS enrichment (R)": 2.62}
{"Strand": "GUCAAGGGCAAGCUGGAGUUAAUAAUCUAUAUUUAUUUGACUCAGCACUGUUUUCAUCACAACUUGUUUUCCCAGCAUCAUGUAGUGCAUUUAGUUUUGUCUUUCUCAGG", "RBNS enrichment (R)": 1.53}
{"Strand": "CUUUUUGUAUAGAAAGCACUACCCUAAGCCAUGAGGAUCUCCAUGCUUUGCUAACCAAGAUAACUGUUUUCUCUUUGUAGAAGUUUUGUUUUUGAAAUGUGUAUUUCUAA", "RBNS enrichment (R)": 0.55}
{"Strand": "GUGGAGACGUUUCCAGAUCAGCCCAAGUUUACUAUAGAGACUGGCCCAGGCACUGAAUGUCUAGGACAUGCUGUGGAUGAAGAUAAAGAUGGUGGAAUAGGUUUUAUCAC", "RBNS enrichment (R)": 0.541}
{"Strand": "AGAGAGUUACAGGAAUAGAGAACCUGUUUUUGAGACAUGUUGUCAUUUUGAUGAGAUAACCUUCAUCUCGUUACUGAAAUAUCUAACUUCAGCUAGAUAUGAGCUAUGCA", "RBNS enrichment (R)": 1.12}
{"Strand": "AGUGUAAGAACUGUACAUUGUGAGCUCUGGUUAUUUUUCUCUUGUACCAUAGAAAAAUGUAUAAAAAUUAUCAAAAAGCUAAUGUGCAGGGAUAUUGCCUUAUUUGUCUG", "RBNS enrichment (R)": 0.444}
{"Strand": "AGGUCUAGGUGUGUUUAAAUUUCUGAAGAUCAUUUUUCAUUAUAACAUUCAGGCCAGACACUUGAAAGUGACUGUUUGUUCUUAUAGUGUCCCCAAGUCUGCUAAUUAAG", "RBNS enrichment (R)": 0.215}
{"data": "Other studies, line by line", "P1": "PafA, mature enzyme, eGFP fusion (Elizabethkingia meningoseptica, UniProt Q9KJX5); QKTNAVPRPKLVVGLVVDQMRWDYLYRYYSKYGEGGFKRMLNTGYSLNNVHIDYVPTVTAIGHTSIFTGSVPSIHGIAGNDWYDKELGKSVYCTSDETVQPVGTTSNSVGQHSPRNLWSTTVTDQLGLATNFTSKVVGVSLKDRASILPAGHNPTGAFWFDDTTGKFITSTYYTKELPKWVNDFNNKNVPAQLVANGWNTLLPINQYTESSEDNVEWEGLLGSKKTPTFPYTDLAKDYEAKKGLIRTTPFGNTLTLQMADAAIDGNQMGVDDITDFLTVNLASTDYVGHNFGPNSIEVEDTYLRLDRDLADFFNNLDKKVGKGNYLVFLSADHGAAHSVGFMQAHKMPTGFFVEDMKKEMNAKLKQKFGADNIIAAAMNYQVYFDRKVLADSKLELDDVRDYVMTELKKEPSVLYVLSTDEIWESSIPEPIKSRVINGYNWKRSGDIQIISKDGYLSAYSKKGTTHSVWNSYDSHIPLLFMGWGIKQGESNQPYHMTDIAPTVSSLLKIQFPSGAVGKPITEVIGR"}
{"Molecule": "ENO1 (Homo sapiens, UniProt P06733)", "target or system": "ATP6V0A1 (Homo sapiens, UniProt Q93050)", "test": "cross-linking MS", "system": "cell fractions", "setting": "added: DSSO", "quantity": "cross-linked residues", "value": "K330 to K119"}
{"Molecule": "P1 Y439G", "target or system": "tungstate, free oxyanion", "test": "microfluidic competitive inhibition", "system": "in vitro, cell-free expressed", "setting": "not given, derived from inhibition constants, unchanged parent 2230 nM", "scale": "lower = stronger binding", "quantity": "oxyanion analog dissociation constant", "value": "1.23 µM"}
{"Molecule": "PSMC5 (Homo sapiens, UniProt P62195)", "target or system": "PSMD1 (Homo sapiens, UniProt Q99460)", "test": "cross-linking MS", "setting": "hits only", "quantity": "interaction screen", "value": "cross-linked"}
{"Molecule": "SDHB (Homo sapiens, UniProt P21912)", "target or system": "SDHA (Homo sapiens, UniProt P31040)", "test": "cross-linking MS", "setting": "hits only", "quantity": "interaction screen", "value": "cross-linked"}
{"Molecule": "GPAT3 (Homo sapiens, UniProt Q53EU6)", "target or system": "CHP1 (Homo sapiens, UniProt Q99653)", "test": "cross-linking MS", "system": "cell fractions", "setting": "added: DSSO", "quantity": "cross-linked residues", "value": "K81 to K188"}
{"note": "Excerpt of the above (other studies, line by line):"}
{"Molecule": "SDHB (Homo sapiens, UniProt P21912)", "target or system": "SDHA (Homo sapiens, UniProt P31040)", "test": "cross-linking MS", "setting": "hits only", "quantity": "interaction screen", "value": "cross-linked"}
